# Measured values of several laboratories.
# Protocols differ between the studies behind these lines. Values joined by “and” are separate records of one study, mostly repeats; a detail may differ. ± gives the spread as reported.
# Baiap2: BAR/IMD domain-containing adapter protein 2 (Baiap2, Rattus norvegicus, UniProt Q6GMN2)
# Chain of UniProt Q6GMN2 (whole entry, looked up): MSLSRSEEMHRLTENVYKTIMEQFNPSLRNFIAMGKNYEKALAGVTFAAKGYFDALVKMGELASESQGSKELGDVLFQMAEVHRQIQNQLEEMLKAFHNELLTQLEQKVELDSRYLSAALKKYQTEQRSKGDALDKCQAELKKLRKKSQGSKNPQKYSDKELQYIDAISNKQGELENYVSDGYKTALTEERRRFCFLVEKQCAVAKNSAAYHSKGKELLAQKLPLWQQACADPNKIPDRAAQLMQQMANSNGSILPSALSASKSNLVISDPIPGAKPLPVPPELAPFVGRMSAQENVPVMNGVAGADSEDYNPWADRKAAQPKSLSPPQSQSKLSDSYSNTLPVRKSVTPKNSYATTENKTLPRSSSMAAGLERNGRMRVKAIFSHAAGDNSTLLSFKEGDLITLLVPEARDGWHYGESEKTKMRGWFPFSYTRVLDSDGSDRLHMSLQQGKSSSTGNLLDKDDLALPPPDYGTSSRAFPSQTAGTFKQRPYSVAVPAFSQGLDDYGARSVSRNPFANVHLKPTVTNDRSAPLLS
# Chain of UniProt Q92743 (whole entry, looked up): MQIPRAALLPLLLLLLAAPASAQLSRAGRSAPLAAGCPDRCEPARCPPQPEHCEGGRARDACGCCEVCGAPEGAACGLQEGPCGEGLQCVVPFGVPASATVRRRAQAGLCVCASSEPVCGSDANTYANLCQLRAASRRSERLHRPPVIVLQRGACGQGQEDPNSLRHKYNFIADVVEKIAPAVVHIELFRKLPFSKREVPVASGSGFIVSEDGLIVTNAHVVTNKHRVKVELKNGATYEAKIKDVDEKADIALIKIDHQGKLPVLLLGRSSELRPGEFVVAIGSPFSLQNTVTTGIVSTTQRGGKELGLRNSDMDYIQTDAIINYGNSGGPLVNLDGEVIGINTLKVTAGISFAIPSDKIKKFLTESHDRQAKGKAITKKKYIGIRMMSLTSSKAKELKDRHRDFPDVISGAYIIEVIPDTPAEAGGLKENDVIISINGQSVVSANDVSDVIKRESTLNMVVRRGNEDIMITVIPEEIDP
# Chain of UniProt P06276 (whole entry, looked up): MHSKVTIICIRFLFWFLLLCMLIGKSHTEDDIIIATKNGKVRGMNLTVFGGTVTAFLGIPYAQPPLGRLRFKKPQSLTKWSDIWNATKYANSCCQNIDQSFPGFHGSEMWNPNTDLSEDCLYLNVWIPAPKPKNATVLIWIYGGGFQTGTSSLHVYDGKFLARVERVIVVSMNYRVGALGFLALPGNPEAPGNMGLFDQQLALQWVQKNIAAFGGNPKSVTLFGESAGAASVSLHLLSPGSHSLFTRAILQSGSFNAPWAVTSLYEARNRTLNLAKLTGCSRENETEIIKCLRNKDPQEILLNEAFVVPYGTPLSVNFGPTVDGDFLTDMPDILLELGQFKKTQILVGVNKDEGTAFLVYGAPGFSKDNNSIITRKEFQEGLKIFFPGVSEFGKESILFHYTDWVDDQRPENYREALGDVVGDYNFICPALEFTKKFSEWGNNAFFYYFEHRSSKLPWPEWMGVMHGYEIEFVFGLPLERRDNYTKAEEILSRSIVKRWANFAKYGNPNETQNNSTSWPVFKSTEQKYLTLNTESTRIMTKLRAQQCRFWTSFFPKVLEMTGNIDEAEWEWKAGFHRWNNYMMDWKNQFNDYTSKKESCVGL
# Chain of UniProt P62813 (whole entry, looked up): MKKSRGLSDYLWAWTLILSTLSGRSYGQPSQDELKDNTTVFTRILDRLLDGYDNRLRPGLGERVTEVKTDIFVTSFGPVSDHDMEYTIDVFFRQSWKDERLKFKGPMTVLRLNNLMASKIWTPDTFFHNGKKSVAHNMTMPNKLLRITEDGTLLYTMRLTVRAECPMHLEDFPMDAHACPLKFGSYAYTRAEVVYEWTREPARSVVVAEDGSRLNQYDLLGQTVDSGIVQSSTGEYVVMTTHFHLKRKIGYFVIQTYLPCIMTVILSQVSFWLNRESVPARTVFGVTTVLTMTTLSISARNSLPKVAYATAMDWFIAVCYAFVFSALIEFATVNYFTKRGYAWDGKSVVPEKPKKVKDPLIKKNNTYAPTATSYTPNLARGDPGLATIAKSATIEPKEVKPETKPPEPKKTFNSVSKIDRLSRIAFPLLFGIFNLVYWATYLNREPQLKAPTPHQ
# Chain of UniProt Q9BZJ8 (whole entry, looked up): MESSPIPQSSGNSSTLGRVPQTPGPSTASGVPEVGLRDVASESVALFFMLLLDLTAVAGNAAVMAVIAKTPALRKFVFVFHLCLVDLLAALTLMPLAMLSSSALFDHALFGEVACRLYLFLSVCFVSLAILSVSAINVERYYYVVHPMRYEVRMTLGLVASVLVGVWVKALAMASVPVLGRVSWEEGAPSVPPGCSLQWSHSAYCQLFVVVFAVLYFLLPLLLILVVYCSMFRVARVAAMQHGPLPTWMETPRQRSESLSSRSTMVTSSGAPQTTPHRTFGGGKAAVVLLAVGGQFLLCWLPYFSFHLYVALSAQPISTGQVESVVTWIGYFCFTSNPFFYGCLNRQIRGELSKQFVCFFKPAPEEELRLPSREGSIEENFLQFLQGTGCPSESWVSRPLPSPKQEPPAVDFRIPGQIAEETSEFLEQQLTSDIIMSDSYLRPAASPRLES
# Chain of UniProt O00429 (whole entry, looked up): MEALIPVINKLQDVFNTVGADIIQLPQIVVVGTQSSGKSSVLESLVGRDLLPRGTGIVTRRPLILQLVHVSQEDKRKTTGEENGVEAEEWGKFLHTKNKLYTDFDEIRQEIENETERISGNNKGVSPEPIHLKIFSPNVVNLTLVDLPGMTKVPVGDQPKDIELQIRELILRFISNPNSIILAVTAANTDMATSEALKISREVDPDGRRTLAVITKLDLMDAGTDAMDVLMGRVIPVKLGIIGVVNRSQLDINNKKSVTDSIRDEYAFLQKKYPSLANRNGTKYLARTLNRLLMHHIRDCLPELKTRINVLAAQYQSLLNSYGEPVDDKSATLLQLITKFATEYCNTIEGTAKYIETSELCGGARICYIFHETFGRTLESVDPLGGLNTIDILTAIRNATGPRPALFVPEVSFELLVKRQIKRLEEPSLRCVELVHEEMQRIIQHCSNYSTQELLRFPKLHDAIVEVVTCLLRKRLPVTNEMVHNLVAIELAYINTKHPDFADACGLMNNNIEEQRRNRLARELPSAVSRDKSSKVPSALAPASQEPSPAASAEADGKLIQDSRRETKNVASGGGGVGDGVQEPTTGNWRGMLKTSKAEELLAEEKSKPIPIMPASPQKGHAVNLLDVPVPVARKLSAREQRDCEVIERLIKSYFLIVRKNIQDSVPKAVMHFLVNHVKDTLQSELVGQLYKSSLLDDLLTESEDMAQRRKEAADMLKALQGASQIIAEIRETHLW
# Chain of UniProt P81908 (whole entry, looked up): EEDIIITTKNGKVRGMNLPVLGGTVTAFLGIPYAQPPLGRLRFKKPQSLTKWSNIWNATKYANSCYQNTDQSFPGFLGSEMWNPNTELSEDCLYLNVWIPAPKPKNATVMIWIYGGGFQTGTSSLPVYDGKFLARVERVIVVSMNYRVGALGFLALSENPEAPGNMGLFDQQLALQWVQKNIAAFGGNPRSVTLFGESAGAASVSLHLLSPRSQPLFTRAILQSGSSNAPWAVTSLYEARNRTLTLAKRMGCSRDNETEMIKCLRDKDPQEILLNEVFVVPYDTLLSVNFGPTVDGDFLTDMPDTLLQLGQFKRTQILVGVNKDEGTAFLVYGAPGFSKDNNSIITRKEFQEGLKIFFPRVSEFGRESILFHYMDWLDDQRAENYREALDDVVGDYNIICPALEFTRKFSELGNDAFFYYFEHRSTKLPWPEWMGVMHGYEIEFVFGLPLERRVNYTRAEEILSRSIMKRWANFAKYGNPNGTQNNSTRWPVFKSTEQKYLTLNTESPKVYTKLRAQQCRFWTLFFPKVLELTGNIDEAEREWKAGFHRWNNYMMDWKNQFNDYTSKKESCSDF
# Chain of UniProt O43704 (whole entry, looked up): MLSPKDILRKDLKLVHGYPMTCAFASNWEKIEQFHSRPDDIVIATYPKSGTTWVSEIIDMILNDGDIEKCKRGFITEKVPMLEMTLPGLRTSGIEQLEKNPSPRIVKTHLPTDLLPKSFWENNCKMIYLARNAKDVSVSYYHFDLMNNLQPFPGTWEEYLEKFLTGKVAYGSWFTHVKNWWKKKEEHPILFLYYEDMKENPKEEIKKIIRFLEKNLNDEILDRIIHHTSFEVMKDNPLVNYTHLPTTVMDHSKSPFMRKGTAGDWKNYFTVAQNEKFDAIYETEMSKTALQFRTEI
# Chain of UniProt P31751 (whole entry, unmodified, looked up): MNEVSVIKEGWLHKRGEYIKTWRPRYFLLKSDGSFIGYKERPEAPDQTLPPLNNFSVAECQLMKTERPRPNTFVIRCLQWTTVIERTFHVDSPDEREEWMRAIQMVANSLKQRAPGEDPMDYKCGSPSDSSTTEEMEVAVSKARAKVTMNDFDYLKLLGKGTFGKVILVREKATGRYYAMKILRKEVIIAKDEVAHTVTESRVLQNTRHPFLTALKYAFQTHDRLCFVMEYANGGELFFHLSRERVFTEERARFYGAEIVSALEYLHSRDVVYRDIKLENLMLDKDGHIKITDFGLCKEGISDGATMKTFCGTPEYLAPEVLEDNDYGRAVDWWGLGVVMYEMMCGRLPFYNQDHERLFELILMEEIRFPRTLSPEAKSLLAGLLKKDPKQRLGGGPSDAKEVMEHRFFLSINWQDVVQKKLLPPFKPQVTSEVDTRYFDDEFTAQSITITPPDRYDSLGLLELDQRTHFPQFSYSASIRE
SMILES,tested on,test,test system,conditions,scale,quantity,value
Cc1c[nH]c2ncnc(N3CCC(CN)(C(=O)Nc4cccc(OC(=O)N(C)C)c4)CC3)c12,"Cholinesterase (BCHE, Homo sapiens, UniProt P06276)",,,"concentration not given, Triton",,efficacy,-97.5 ± 6.62%
O=C(c1ccc(Cl)cc1)N1CCN2C(=O)N(OC(=O)N3CCOc4ccccc43)C(=O)C2C1 (centres unmarked),"Serine protease HTRA1 (Homo sapiens, UniProt Q92743)",MS-based ABPP,SW-620 conditioned medium,"10 µM, 1 h, 37 °C","reference: compound over DMSO, lower = more inhibition",peptide ratio,1.03 and 1.15 and 1.38 and 1.18 and 1.49 and 1.14 and 1.13 and 1.02
CCN(C)C(=O)Oc1ccc(CCC(=O)N(CC)Cc2ccccc2)cc1OC,"Cholinesterase (BCHE, Equus caballus, UniProt P81908)",Ellman,equine serum BuChE,,reference: AChE IC50 over BuChE IC50,selectivity ratio,1.1
Cc1[nH]c(C)c(S(=O)(=O)Nc2ccc(S(F)(F)(F)(F)F)cc2)c1C(=O)N1CCC(F)(F)C1,"DRD3 (Homo sapiens, UniProt P35462)","allosteric modulator, ternary complex model",,"added: dopamine, [3H]methylspiperone",,cooperativity factor α,4.8
CC1(C(=O)O)C2CCC(O2)C1(C)C(=O)O (centres unmarked),Plasmodium falciparum,,GB4,,,IC50,3.16 µM
CC1(C)S[C@@H]2[C@H](/N=C/N3CCCCCC3)C(=O)N2[C@H]1C(=O)O,"Penicillin-binding protein 2B (Streptococcus pneumoniae, UniProt P0A3M6)",inhibitor,,,,kinact/KI,26 ± 1.8 M⁻¹ s⁻¹
CC[C@H](C)[C@H]1O[C@]2(C=C[C@@H]1C)C[C@@H]1C[C@@H](C/C=C(\C)[C@@H](O[C@H]3C[C@H](OC)[C@@H](O[C@H]4C[C@H](OC)[C@@H](O)[C@H](C)O4)[C@H](C)O3)[C@@H](C)/C=C/C=C3\CO[C@@H]4[C@H](O)C(C)=C[C@@H](C(=O)O1)[C@]34O)O2,"GABA-A receptor; alpha-1/beta-2/gamma-2 (Rattus norvegicus, UniProt P18508+P62813+P63138)","membrane potential, agonist, QP-DHM fluorescence",HEK293 expressing GABAA,10 µM,"reference: 10 µM GABA, direction not given",agonist score,0.86
COc1cc(Br)cc(Br)c1Oc1cc(Br)cc(Br)c1O,"SULT1B1 (Homo sapiens, UniProt O43704)","sulfonation, substrate",,,,Vmax/Km,4860 µL/min/mg
COc1ccc(N2C(=O)N(c3c(C)cccc3Cl)Cc3cnc(Nc4ccc(C5CCN(C)CC5)cc4OC)nc32)nc1,"AKT2 (Homo sapiens, UniProt P31751)",kinase activity,,0.5 µM,,inhibition,2.75%
CN(C(=O)n1cnc(-c2ccc[n+]([O-])c2)c1)C1CCCCC1,"Abhydrolase domain-containing protein 11 (Rattus norvegicus, UniProt D3ZXK4)","enzyme activity, ABPP","rat, brain","oral, 100 mg/kg/day, 7 days",reference: vehicle,fold change,-2.8
O=C(O)C(F)(F)C(F)(F)C(F)(F)C(F)(F)C(F)(F)C(F)(F)C(F)(F)F,"SLC10A1 (Homo sapiens, UniProt Q14973)",substrate,HEK293 stably expressing,10 µM,,linear uptake duration,1 min
COc1cc2nccc(Oc3ccc(NC(=O)c4cc5c(n(-c6ccccc6)c4=O)CCCC5=O)nc3)c2cc1OC,"MERTK (Homo sapiens, UniProt Q12866)","cell viability, CellTiter-Glo",Ba/F3 expressing recombinant kinase,,reference: MERTK IC50 over AXL IC50,selectivity ratio,1
Nc1nc2c(ncn2[C@H]2C[C@H](O)[C@@H](COP(=O)(O)OP(=O)(O)OP(=O)(O)O)O2)c(=O)[nH]1,"Gag-Pol polyprotein, reverse transcriptase (gag-pol, Human immunodeficiency virus type 1 group M subtype B, UniProt P04585, K653T)","nucleotide misincorporation, steady-state kinetics",,"K66T RT, added: matched template/primer, template T",,kcat,0.0472 ± 0.00333 s⁻¹
COc1cc(N)c(Cl)cc1C(=O)NC1CN2CCC1CC2 (centres unmarked),"G-protein coupled receptor 61 (GPR61, Homo sapiens, UniProt Q9BZJ8)","β-arrestin recruitment, TANGO luminescence, refers to: GPR61",,concentration not given,reference: basal luminescence,log2 fold change,0.344
O=C1c2ccncc2C(=O)c2c1[nH]c1ccccc21,"DNM1L (Homo sapiens, UniProt O00429)","inhibitor, immunoprecipitated protein",PAH hPASMC,concentration not given,,GTPase activity,inhibited
O=C(Nc1cccnn1)N1CCC(=Cc2cccc(Oc3ccc(C(F)(F)F)cn3)c2)CC1,Baiap2,"competitive ABPP with azido-FP probe, refers to: BAIAP2",rat brain membrane fraction,"0.01 µM, unit not given",reference: DMSO,probe labelling,-2
O=C1C(P(=O)(O)O)CC(O)N1O (centres unmarked),"Gamma-enolase (ENO2, Homo sapiens, UniProt P09104)",recombinant protein,,"1 µM, protein 9 nM",,thermal shift,~12 °C
NC(=Nc1ccccc1)NC(=O)c1nc(Cl)c(N)nc1N,Plasmodium falciparum,,HB3,,,IC50,7.94 µM
CN1CCN(c2cc(-c3ccncc3)c(-c3ccc4ccccc4c3)nn2)CC1,"NPBWR1 (Homo sapiens, UniProt P48145)","agonist, FLIPR",,12.5 µM,,activation,-0.4%
CN(C(=O)n1cnc(-c2ccc[n+]([O-])c2)c1)C1CCCCC1,Baiap2,"competitive ABPP with azido-FP probe, refers to: BAIAP2",rat brain membrane fraction,"10 µM, unit not given",reference: DMSO,probe labelling,-1.9
CC(=O)N[C@@H](C)C(=O)N1CCC[C@H]1C(=O)N[C@@H](CC(C)C)C(=O)N[C@H](C(=O)N[C@@H](CCCNC(=N)N)C(=O)NCC(=O)N[C@@H](CO)C(=O)N[C@@H](CS)C(=O)N[C@@H](CCCNC(=N)N)C(=O)N[C@@H](CCCCN)C(=O)N[C@@H](CCCNC(=N)N)C(=O)N[C@@H](CC(N)=O)C(=O)N[C@@H](CCCNC(=N)N)C(=O)N[C@@H](CO)C(=O)N1CCC[C@H]1C(=O)N[C@@H](CCC(=O)O)C(=O)N[C@@H](CCCNC(=N)N)C(N)=O)[C@@H](C)O,"WDR5 (Homo sapiens, UniProt P61964)","binding, competitor of LANA peptide, ITC",,"pH 7.0, 20 °C, WIN motif peptide",,ΔH,-2.1 kcal/mol
C=CCNCC(=O)O,"putA (Sinorhizobium meliloti, UniProt F7X6I3)",covalent inactivator,,23 °C,,KI,933 ± 110 µM
COc1c(N2CC3CCCNC3C2)c(F)cc2c(=O)c(C(=O)OCc3cnc([N+](=O)[O-])s3)cn(C3CC3)c12.O=C(O)C(F)(F)F (centres unmarked),"nfsB (Escherichia coli K-12, UniProt P38489)",substrate,,added: NADH 100 µM,,kcat,8.24 s⁻¹
O=C(Nc1cnccc1Cl)N1CCN(Cc2ccc3c(c2)OC(F)(F)O3)CC1,Baiap2,"competitive ABPP with azido-FP probe, refers to: BAIAP2",rat brain membrane fraction,"1 µM, unit not given",reference: DMSO,probe labelling,-1.9
N#C[Se]Cc1cc(=O)oc2cc(O)ccc12,"CA12 (Homo sapiens, UniProt O43570)",stopped-flow CO2 hydration,,,reference: Ki CA II over Ki CA XII,selectivity ratio,> 1070
[2H]c1c([2H])c([C@]2([2H])CCCN2C(=O)C(C)(C)Oc2ccc3cn[nH]c3c2)c([2H])c([2H])c1C([2H])([2H])[2H],"PIM3 (Homo sapiens, UniProt Q86V86)",KINOMEscan,,1 µM,reference: DMSO control,remaining binding,92%
CN(C)CCN(Cc1ccsc1)c1ccccn1,"Cholinesterase (BCHE, Homo sapiens, UniProt P06276)",,,"concentration not given, Triton",,efficacy,-83.6 ± 9.47%
Clc1cccc(-c2cccc(Cl)c2)c1,"Androgen receptor (AR, Homo sapiens, UniProt P10275)","reporter gene, antagonist",,"24 h, added: DHT 2 nM",,IC25,1.3 µM
C[C@H]1CN(c2n[nH]c3nc(N[C@H]4CC[C@H](NS(=O)(=O)CCC(F)(F)F)CC4)ncc23)CCO1,"Exportin-7 (Homo sapiens, UniProt Q9UIA9)","Kinobeads competition, refers to: XPO7",,"20 µM, unit not given",reference: vehicle,remaining binding,1.18

# Some of these lines once more:
SMILES,tested on,test,test system,conditions,scale,quantity,value
C=CCNCC(=O)O,"putA (Sinorhizobium meliloti, UniProt F7X6I3)",covalent inactivator,,23 °C,,KI,933 ± 110 µM
COc1c(N2CC3CCCNC3C2)c(F)cc2c(=O)c(C(=O)OCc3cnc([N+](=O)[O-])s3)cn(C3CC3)c12.O=C(O)C(F)(F)F (centres unmarked),"nfsB (Escherichia coli K-12, UniProt P38489)",substrate,,added: NADH 100 µM,,kcat,8.24 s⁻¹
O=C(Nc1cnccc1Cl)N1CCN(Cc2ccc3c(c2)OC(F)(F)O3)CC1,Baiap2,"competitive ABPP with azido-FP probe, refers to: BAIAP2",rat brain membrane fraction,"1 µM, unit not given",reference: DMSO,probe labelling,-1.9
N#C[Se]Cc1cc(=O)oc2cc(O)ccc12,"CA12 (Homo sapiens, UniProt O43570)",stopped-flow CO2 hydration,,,reference: Ki CA II over Ki CA XII,selectivity ratio,> 1070
[2H]c1c([2H])c([C@]2([2H])CCCN2C(=O)C(C)(C)Oc2ccc3cn[nH]c3c2)c([2H])c([2H])c1C([2H])([2H])[2H],"PIM3 (Homo sapiens, UniProt Q86V86)",KINOMEscan,,1 µM,reference: DMSO control,remaining binding,92%
